Assay results collected from several papers.
Each numbered part is a random draw from the data of one study; scales do not carry over between parts. Values joined by “and” are separate records of one study, mostly repeats; a detail may differ.
Chain of UniProt P07948 (whole entry, looked up): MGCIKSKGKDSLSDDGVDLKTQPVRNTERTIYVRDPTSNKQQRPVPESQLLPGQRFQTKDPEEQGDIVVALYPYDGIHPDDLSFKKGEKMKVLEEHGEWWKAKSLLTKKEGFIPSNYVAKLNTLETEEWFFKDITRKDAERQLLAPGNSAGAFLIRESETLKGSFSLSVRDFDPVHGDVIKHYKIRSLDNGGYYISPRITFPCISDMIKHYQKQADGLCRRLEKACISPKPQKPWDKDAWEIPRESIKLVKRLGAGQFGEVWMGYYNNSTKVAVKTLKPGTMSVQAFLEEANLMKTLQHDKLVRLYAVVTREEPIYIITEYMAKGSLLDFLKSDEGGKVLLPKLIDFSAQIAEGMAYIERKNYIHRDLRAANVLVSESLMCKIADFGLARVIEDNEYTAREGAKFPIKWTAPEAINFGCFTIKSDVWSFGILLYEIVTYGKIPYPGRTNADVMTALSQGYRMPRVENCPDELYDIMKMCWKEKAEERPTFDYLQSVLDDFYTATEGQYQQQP
Chain of UniProt O43293 (whole entry, looked up): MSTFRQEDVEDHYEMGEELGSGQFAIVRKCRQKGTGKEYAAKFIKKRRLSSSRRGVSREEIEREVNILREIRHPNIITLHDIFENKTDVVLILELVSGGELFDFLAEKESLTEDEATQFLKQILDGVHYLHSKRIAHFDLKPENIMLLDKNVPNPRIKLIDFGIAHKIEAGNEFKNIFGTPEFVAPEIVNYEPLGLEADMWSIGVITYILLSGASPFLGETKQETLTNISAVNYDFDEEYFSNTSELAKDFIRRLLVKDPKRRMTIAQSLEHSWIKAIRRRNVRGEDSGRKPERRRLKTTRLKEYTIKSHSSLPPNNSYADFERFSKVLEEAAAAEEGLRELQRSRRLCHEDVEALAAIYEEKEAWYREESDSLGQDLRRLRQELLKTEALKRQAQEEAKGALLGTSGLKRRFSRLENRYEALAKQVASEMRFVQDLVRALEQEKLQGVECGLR

Study 1
SMILES: CCN1/C(=C/C=C2\CCCC(/C=C/C3=[N+](CC)c4ccccc4C3(C)C)=C2NCCCCCCCCN2CCC(Nc3nc4ccccc4n3Cc3ccc(F)cc3)CC2)C(C)(C)c2ccccc21
Cell line: U-87 MG
Concentration: concentration not given
Relative to: DMSO
refers to	log2 fold change
ATP8B3 mRNA	-1.6
PRX mRNA	1.07
LIMA1 mRNA	-1.22
KIF24 mRNA	-1.79
CDCA3 mRNA	-2.15
MIS18BP1 mRNA	-1.2
TTC39B mRNA	1.38
SGO1 mRNA	-1.65
SEC24A mRNA	1.01
CENPJ mRNA	-1.27
GABRA3 mRNA	-1.93

Study 2
SMILES: C=C(CN)COc1cccc(Cn2c(=S)[nH]c(=O)c3[nH]cnc32)c1
MPO: Myeloperoxidase (MPO, Homo sapiens, UniProt P05164)
Chain of UniProt P05164 (whole entry, looked up): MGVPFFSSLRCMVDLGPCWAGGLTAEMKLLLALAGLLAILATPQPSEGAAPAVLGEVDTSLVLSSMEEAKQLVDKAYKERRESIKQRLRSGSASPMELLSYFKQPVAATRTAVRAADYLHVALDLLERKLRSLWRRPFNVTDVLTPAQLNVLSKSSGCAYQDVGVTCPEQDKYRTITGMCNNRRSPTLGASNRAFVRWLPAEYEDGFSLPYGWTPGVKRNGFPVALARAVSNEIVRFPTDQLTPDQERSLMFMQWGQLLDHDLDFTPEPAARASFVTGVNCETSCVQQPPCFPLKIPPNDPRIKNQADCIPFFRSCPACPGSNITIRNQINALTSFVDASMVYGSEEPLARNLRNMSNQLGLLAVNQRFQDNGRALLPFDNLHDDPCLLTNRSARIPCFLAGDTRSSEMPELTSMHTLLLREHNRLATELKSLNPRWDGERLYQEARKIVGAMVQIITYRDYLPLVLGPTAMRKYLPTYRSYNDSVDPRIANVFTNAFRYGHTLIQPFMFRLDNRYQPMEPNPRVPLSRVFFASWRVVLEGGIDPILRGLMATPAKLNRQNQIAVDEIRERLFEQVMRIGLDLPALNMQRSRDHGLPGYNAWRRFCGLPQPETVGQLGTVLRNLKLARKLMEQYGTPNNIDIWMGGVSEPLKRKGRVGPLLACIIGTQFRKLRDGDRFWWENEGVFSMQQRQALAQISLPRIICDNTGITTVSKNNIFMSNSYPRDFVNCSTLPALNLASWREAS
AOC3: Amine oxidase [copper-containing] 3 (AOC3, Homo sapiens, UniProt Q16853)
Chain of UniProt Q16853 (whole entry, looked up): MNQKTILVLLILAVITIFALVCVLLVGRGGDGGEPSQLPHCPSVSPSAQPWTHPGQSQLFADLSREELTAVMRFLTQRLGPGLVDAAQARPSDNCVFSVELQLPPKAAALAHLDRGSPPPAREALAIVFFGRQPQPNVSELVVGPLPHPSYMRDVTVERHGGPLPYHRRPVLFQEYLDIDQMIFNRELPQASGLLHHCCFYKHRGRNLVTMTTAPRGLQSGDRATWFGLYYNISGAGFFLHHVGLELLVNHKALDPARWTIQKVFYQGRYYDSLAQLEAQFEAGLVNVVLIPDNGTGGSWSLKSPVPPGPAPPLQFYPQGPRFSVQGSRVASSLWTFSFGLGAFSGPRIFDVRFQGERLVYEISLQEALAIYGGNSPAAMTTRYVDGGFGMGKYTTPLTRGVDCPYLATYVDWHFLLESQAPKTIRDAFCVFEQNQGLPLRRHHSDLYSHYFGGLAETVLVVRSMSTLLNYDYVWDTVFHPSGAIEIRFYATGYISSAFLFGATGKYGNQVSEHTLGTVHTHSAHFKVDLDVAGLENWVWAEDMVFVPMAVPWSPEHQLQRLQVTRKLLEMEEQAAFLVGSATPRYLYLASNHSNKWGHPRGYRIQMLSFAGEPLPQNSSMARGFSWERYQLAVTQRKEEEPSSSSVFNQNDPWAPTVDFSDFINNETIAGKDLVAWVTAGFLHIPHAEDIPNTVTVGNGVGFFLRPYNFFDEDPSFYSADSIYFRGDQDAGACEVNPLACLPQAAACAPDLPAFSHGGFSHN
target	observed	mode	method	concentration	notes	inhibition
MPO	enzyme activity	inhibitor	fluorescence	10 µM	–	100%
AOC3	H2O2 production	inhibitor	Amplex Red	3.333 µM	–	87.1 % Inhibition and 64.3 % Inhibition
AOC3	enzyme activity	–	Amplex Red H2O2 production	30 µM	mean value	93.6%
MPO	enzyme activity	–	–	10 µM	–	99.9%
MPO	enzyme activity	inhibitor	fluorescence	37 nM	–	66.4%
AOC3	enzyme activity	–	Amplex Red H2O2 production	0.0005 µM	mean value	2.76%
AOC3	enzyme activity	–	Amplex Red H2O2 production	30 µM	–	97.2%
AOC3	enzyme activity	–	Amplex Red H2O2 production	0.1235 µM	mean value	10.7%
MPO	enzyme activity	inhibitor	fluorescence	1.4 nM	–	9.11%
AOC3	H2O2 production	inhibitor	Amplex Red	0.0015 µM	–	11.6 % Inhibition and -2.93 % Inhibition
MPO	enzyme activity	–	–	3.333 µM	–	100%
AOC3	H2O2 production	inhibitor	Amplex Red	0.0412 µM	–	20.9 % Inhibition and -0.545 % Inhibition
AOC3	H2O2 production	inhibitor	Amplex Red	1.111 µM	–	36 % Inhibition
MPO	enzyme activity	inhibitor	fluorescence	3 µM	–	99.6%
MPO	enzyme activity	inhibitor	fluorescence	30 µM	–	101%
MPO	enzyme activity	inhibitor	fluorescence	4.1 nM	–	25.4%

Study 3
Structure (SMILES): C[C@@H]1CN(c2ccc(-c3cc(C(=O)NCCOCCOCCOCCOCCNC(=O)Cn4cc(-c5[nH]cc(C(=O)N[C@@H](CC(N)=O)c6ccc(F)c(Cl)c6)c5-c5ccc(Cl)cc5F)cn4)ccc3F)cc2NC(=O)c2c[nH]c(=O)cc2C(F)(F)F)C[C@H](C)N1C
Observed: thermal unfolding
Method: differential scanning fluorimetry
Concentration: 5.5 µM
Direction: higher = more unfolded
WDR5: WD repeat-containing protein 5 (WDR5, Homo sapiens, UniProt P61964)
DCAF1: DDB1- and CUL4-associated factor 1 (DCAF1, Homo sapiens, UniProt Q9Y4B6)
Chain of UniProt Q9Y4B6 (whole entry, looked up): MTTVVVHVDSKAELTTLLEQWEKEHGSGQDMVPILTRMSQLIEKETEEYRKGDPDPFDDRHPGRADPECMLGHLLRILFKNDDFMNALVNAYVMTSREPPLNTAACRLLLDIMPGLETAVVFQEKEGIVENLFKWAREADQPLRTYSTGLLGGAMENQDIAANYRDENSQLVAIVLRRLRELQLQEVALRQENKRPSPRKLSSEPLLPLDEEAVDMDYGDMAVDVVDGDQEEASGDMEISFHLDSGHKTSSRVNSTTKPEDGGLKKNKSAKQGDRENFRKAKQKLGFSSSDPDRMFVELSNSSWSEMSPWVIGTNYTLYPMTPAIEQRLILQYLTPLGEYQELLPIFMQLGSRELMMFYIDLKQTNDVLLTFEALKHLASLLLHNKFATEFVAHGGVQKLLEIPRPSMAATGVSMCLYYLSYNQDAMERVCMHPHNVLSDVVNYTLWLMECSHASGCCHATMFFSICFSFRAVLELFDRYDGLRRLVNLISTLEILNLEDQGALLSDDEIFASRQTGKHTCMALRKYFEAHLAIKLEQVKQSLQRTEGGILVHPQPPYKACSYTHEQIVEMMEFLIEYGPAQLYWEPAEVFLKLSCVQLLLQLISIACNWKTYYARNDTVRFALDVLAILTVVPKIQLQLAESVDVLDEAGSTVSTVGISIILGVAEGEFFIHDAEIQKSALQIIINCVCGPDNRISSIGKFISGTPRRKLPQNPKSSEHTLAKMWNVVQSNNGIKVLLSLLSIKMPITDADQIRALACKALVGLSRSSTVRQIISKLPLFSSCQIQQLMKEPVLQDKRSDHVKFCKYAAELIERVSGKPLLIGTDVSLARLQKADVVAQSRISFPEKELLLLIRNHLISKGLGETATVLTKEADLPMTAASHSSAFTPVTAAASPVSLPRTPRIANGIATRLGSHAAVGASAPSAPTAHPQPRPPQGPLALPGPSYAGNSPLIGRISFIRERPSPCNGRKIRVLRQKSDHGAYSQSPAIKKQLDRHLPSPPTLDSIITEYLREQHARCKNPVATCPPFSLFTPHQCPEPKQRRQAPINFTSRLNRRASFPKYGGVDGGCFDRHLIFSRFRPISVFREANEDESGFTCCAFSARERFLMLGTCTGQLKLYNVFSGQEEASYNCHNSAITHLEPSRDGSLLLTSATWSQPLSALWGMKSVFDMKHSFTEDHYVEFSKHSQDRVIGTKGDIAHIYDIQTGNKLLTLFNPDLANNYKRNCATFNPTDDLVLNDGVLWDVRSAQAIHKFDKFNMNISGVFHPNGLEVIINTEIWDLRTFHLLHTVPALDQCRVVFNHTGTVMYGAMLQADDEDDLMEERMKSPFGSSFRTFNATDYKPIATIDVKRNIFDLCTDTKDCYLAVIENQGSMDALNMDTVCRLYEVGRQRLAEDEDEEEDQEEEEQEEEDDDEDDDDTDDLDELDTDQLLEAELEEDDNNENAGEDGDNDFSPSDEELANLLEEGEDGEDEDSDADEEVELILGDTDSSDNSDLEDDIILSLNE
target	temperature	SYPRO Orange fluorescence [a.u.]
WDR5	56.21 °C	12900
WDR5	53.61 °C	14200
WDR5	44.6 °C	14400
WDR5	29.4 °C	14900
WDR5	41.6 °C	14200
DCAF1	64.01 °C	54200
DCAF1	92.01 °C	33200

Study 4
SMILES: CC[C@@]1(c2cccc(-c3c(F)cncc3OC)c2)C2=C(Nc3n[nH]cc31)[C@H](F)C(C)(C)CC2=O (single isomer, unassigned)
Concentration: 1 µM
target	observed	method	relative to	remaining binding [%]
CDKL2 (Homo sapiens, UniProt Q92772)	kinase binding	KINOMEscan	DMSO control	90
TSSK3 (Homo sapiens, UniProt Q96PN8)	binding	competition with immobilised ligand	–	87
Receptor-type tyrosine-protein kinase FLT3, autoinhibited (FLT3, Homo sapiens, UniProt P36888)	kinase binding	KINOMEscan	DMSO control	78
CDC42BPA (Homo sapiens, UniProt Q5VT25)	binding	competition with immobilised ligand	–	100
LYN (Homo sapiens, UniProt P07948)	binding	competition with immobilised ligand	–	100
DAPK3 (Homo sapiens, UniProt O43293)	kinase binding	KINOMEscan	DMSO control	90
NEK7 (Homo sapiens, UniProt Q8TDX7)	binding	competition with immobilised ligand	–	100
CDK11B (Homo sapiens, UniProt P21127)	kinase binding	KINOMEscan	DMSO control	100
RAF1 (Homo sapiens, UniProt P04049)	binding	competition with immobilised ligand	–	89
PIK3CA (Homo sapiens, UniProt P42336, M1043I)	kinase binding	KINOMEscan	DMSO control	92
EPHB1 (Homo sapiens, UniProt P54762)	binding	competition with immobilised ligand	–	80
PRKD1 (Homo sapiens, UniProt Q15139)	binding	competition with immobilised ligand	–	88

For quick reference, copied from above (study 2):
target	observed	mode	method	concentration	notes	inhibition
AOC3	enzyme activity	–	Amplex Red H2O2 production	0.1235 µM	mean value	10.7%
MPO	enzyme activity	inhibitor	fluorescence	1.4 nM	–	9.11%
AOC3	H2O2 production	inhibitor	Amplex Red	0.0015 µM	–	11.6 % Inhibition and -2.93 % Inhibition
MPO	enzyme activity	–	–	3.333 µM	–	100%
AOC3	H2O2 production	inhibitor	Amplex Red	0.0412 µM	–	20.9 % Inhibition and -0.545 % Inhibition
AOC3	H2O2 production	inhibitor	Amplex Red	1.111 µM	–	36 % Inhibition
MPO	enzyme activity	inhibitor	fluorescence	3 µM	–	99.6%
